Measurements pooled from the literature.
Every numbered part comes from another study and shows a few of its results, in no order. Substitutions count along the parent as printed.

Block 1
Target: Histone acetyltransferase KAT6A, winged helix 1, GST fusion (KAT6A, Homo sapiens, UniProt Q92794, residues 1-85)
Method: protein binding microarray
Molecule type: double-stranded DNA, one strand shown
Matrix: in vitro
Tested at: not given
Notes: 8-mer, flanks averaged, mean of 2 arrays, mostly near background
Baseline: not given
Direction: higher = stronger binding
Residues (chain): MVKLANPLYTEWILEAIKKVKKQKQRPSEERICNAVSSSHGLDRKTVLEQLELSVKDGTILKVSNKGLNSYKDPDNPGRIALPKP
Oligonucleotide | E-score
ACACCCGA | 0.115
GCGAGTTA | 0.127
TGGTGACA | -0.157
CCAATTTC | -0.23
CTTCCAGC | 0.0268
GTGGTTTA | 0.0741
AGTCCTTG | -0.219
ATAGTGGA | -0.199
GATGCTTA | 0.0205
AATACAGT | -0.218
ACATCCGC | 0.343
ATTTACTG | -0.211
ATTGCTGA | -0.135
AAGGGCAT | -0.277
ACCTGTAT | -0.193
CGGCCTGC | 0.289
CAAGGCGC | 0.329
AAACGATA | -0.178
ATTATCTA | -0.0868
ACCTTACT | -0.246
AGCAAGGC | 0.0191
CCGTGCAG | 0.134
CAAATGTG | -0.072
ATCAAGGG | -0.0659
GCACTGCC | 0.182

Block 2
Target: Prothrombin, mature alpha-thrombin (F2, Homo sapiens, UniProt P00734)
Method: aptamer microarray, sandwich
Molecule type: DNA with 2'F-ANA
Matrix: in vitro
Tested at: 200 nM
Notes: whole 15-mer aptamer, many near background
With: Cy3 exosite-II aptamer, 400 nM
Direction: higher = stronger binding
Oligonucleotide: GGTTGGTGTGGTTGG
Modification | mean fluorescence intensity [a.u.]
2'F-ANA at 5 6 7 8 9 10 11 | 49.2
2'F-ANA at 2 5 8 9 10 11 12 | 47.9
2'F-ANA at 2 8 10 13 14 | 80.9
2'F-ANA at 1 2 6 7 8 10 11 12 13 | 60.3
2'F-ANA at 1 2 3 4 5 7 8 11 12 14 | 49.3
2'F-ANA at 6 7 8 10 12 15 | 217
2'F-ANA at 2 5 6 8 9 10 11 12 13 14 | 51.2
2'F-ANA at 2 7 9 13 15 | 327
2'F-ANA at 1 4 5 6 8 | 58.8
2'F-ANA at 1 4 7 8 10 11 12 14 | 49.4
2'F-ANA at 2 3 5 11 13 14 15 | 72.3
2'F-ANA at 1 3 6 7 10 14 | 59.3
2'F-ANA at 2 10 11 13 14 15 | 89.8
2'F-ANA at 1 4 5 6 8 10 12 13 14 15 | 48.6
2'F-ANA at 5 6 7 8 9 10 11 13 14 15 | 52.6
2'F-ANA at 1 5 6 7 9 10 11 13 | 51.3
2'F-ANA at 3 7 8 10 11 12 13 14 | 446
2'F-ANA at 1 2 3 4 5 6 7 10 13 15 | 45.9
2'F-ANA at 5 7 8 10 13 14 15 | 49.1

Block 3
Target: CCNE1, cyclin fold, Cln2 fusion (human)
Method: yeast growth competition, sequencing
Matrix: yeast
Notes: weak parent motif
Baseline: not given
Direction: higher = stronger binding
Starting sequence: E2F7 docking peptide (human); SSAQRRLEIPSGG
Substitution | normalised enrichment score
SSAQRRLEIPSAG [G12A] | -0.36
ASAQRRLEIPSGG [S1A] | 0.368
SSAARRLEIPSGG [Q4A] | 0.743
SSAQARAEIPSGG [R5A L7A] | 0.168
SSAQRRLEAPSGG [I9A] | 0.544
SSAQRALEIPSGG [R6A] | -0.389
SSAQKRLELPSGG [R5K I9L] | -0.00997
SSAQRRLELPSGG [I9L] | 0.166
SSAQRRAEIPSGG [L7A] | -0.0666
SSAQRRLEFPSGG [I9F] | 2.07

Block 4
Target: PABPC1L2, full length, GST fusion (mouse, UniProt A0ABA7IW68)
Method: RNAcompete
Molecule type: RNA
Matrix: in vitro
Tested at: 20 nM
Notes: 7-mer, probes averaged, single round
Baseline: mean of 7-mers
Direction: higher = stronger binding
Residues (chain): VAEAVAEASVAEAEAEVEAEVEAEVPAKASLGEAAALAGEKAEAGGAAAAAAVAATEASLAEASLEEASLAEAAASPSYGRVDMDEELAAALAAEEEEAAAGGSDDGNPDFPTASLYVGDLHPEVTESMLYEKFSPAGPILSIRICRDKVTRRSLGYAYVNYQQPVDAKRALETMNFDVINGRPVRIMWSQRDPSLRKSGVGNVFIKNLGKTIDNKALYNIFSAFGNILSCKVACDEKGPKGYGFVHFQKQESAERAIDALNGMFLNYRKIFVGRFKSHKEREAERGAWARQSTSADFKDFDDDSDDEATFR
Oligonucleotide | 7-mer Z-score
CUUUAUU | -0.175
CUCGAUA | -0.128
GUGGUAG | -0.148
GAGCUCA | -0.389
AAUAUCC | 0.104
UCUUCGC | -0.336
ACGCGCU | -0.251
ACAUACU | -0.11
GCAUAGA | -0.00108
GAAAACG | 1.83
CCGACUG | -0.0663
CAGGCUC | -0.139
UGGGCAC | -0.0101
CUUGACG | -0.255
UACUUUG | -0.26
UUCCUUG | -0.394
CGUUAAC | -0.287

Block 5
Target: Sal-like protein 4, full length isoform A (SALL4, Homo sapiens, UniProt Q9UJQ4, residues 1-1053)
Sequence of UniProt Q9UJQ4 (whole entry, looked up): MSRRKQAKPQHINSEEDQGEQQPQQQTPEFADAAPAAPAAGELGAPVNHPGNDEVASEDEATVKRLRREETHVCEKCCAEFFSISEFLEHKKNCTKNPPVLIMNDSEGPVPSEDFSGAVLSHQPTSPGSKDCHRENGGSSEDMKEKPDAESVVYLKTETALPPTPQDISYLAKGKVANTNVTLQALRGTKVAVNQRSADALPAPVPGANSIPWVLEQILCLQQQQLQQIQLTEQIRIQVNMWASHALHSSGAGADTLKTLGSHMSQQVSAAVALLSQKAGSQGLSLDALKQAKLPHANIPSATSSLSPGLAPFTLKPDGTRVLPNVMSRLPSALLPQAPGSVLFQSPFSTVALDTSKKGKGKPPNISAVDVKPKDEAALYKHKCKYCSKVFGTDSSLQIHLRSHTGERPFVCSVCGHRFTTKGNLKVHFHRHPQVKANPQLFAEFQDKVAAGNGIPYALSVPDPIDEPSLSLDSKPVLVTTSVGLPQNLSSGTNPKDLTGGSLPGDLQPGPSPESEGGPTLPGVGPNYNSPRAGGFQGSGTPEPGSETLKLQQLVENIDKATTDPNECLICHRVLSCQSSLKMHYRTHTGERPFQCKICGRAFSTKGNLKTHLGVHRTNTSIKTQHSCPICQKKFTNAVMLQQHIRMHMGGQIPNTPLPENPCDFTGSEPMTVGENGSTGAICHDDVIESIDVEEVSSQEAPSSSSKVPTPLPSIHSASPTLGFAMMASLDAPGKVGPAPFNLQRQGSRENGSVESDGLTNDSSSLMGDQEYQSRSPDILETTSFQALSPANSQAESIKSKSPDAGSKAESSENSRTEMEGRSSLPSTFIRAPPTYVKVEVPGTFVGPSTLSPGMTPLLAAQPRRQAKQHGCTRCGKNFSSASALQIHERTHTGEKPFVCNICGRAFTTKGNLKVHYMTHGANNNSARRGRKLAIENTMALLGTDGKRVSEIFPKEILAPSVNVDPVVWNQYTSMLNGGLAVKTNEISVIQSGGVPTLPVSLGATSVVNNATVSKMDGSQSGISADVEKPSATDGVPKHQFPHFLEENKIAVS
Method: universal PBM
Molecule type: double-stranded DNA, one strand shown
Matrix: in vitro
Tested at: 600 nM
Notes: 8-mer, flanks averaged, mean of replicates
Direction: higher = stronger binding
Oligonucleotide | E-score
ACATGACA | 0.17
GGAGTAAA | 0.205
AAAAGACA | 0.199
GTGCGAAA | 0.0517
CCCACGGA | -0.292
CTGGTGCA | -0.221
CACTACAG | -0.0162
ACAATACT | 0.26
CCATCGAA | 0.0086
AGCGTGCG | -0.177
AACAGTAT | 0.271
AAGGTGTA | 0.0482
GGTGCGTA | -0.146
ATTCATTC | 0.267
TAAATTCA | 0.285
ACCACAGA | -0.00285
CCATATCC | 0.0271
ATAGGTCA | 0.216
AGGAAGCA | -0.108
TCCAAGCA | -0.0141
CCATCACG | -0.0521
CTCAGACA | 0.0969
ATGGGCAA | 0.038
TGCTGGAA | -0.00597
GATCCTAC | -0.117

Block 6
Target: Interferon regulatory factor 7, full length, phosphomimetic (IRF7, Homo sapiens, UniProt Q92985, residues 1-503, S101K/S471D/S472D/S475D/S476D/S477D/S483D/S484D/S487D)
Sequence of UniProt Q92985 (whole entry, unmodified, looked up): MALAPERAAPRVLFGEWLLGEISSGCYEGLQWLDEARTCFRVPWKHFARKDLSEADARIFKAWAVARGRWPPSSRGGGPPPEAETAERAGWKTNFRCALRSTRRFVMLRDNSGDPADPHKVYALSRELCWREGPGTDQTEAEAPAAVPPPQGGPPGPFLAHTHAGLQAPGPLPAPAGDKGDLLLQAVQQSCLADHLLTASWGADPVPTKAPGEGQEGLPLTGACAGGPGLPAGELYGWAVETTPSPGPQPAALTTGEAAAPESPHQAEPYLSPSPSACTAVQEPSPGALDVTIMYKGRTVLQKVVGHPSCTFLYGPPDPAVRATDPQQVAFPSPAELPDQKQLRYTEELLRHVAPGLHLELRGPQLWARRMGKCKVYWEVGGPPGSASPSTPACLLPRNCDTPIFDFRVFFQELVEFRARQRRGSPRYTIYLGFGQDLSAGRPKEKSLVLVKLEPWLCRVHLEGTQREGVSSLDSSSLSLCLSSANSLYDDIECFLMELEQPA
Method: protein-binding microarray
Molecule type: double-stranded DNA, one strand shown
Matrix: in vitro
Tested at: 250 nM
Notes: 60-bp whole probe
With: salmon DNA 0.4 mg/ml
Baseline: random background probes
Direction: higher = stronger binding
Shared flanks, not repeated: GCCTAGCAC … GTCTTGATTCGCTTGACGCTGCTG
Oligonucleotide | log fluorescence
TTAGGACTGCTTCTCCTTCAGTGCTAG | 0.445 z-score
GAGGGACTGGGACTGGGGACGTGCTAG | -0.61 z-score
GACGATTTCGGGACTTGAGACGTGCTA | 0.0889 z-score
AGAGCTCTGGCACCTCTAGACGTGCTA | -0.883 z-score
GACGATATCGCGTTTCGAGACGTGCTA | 0.795 z-score
GACGATTTCGGGACTCGAGACGTGCTA | 0.701 z-score
GACGGTTTCGGAATCGGGACGTGCTAG | 9.72 z-score
TCAGTTTTACAGGTTCTCACTGTGCTA | 0.337 z-score
TTAGAACTGTGTCTCGATTAGTGCTAG | 0.411 z-score
GACGGTCTCGGCATCGGGACGTGCTAG | -0.139 z-score
TAGATATTATATCTGTGTTAGTGCTAG | 0.547 z-score
GACGGACTGCTTCTCTTGACGTGCTAG | -0.404 z-score
TTAGATTTCGGGACCGGATTAGTGCTA | 0.882 z-score
CTAGGTCTCGGACTGGGTTAGTGCTAG | 0.924 z-score
TACGGTTCCGGTTTCGGGACGTGCTAG | 7.85 z-score
TTTGATCTCAGTTTCGATTAGTGCTAG | 8.07 z-score
TCATTTTTCTAATTTACACTGTGCTAG | 1.98 z-score

Block 7
Target: ABI1, truncated, D143A, DHFR fusion (Arabidopsis thaliana)
Method: DHFR PCA, deep sequencing
Matrix: yeast
Notes: methotrexate growth selection, single substitutions
With: (+)-ABA 200 µM
Baseline: wild-type fitted maximum
Direction: higher = stronger binding
Starting sequence: PYL1, truncated, DHFR fusion (Arabidopsis thaliana); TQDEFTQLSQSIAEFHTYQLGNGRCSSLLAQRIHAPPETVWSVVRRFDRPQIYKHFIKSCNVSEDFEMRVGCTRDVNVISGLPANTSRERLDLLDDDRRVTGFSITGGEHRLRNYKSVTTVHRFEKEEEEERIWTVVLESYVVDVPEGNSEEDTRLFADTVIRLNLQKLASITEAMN; partner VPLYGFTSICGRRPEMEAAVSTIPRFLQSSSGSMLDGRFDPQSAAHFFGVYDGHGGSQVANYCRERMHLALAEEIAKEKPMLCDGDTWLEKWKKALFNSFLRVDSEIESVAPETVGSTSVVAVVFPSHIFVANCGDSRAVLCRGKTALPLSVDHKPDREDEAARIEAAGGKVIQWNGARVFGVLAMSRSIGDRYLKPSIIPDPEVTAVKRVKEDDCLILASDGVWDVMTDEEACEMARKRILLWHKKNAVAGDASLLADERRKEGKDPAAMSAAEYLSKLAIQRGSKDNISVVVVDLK
Substitution | relative binding score [%]
R32P | 81.2
F157T | 1.16
D97C | 87.8
S140T | 3.59
Q2I | 97.7
A175H | 101
S27Q | 89.1
L8G | 55.7
S11L | 88.2
E109M | 90.2
R99T | 68.9
G81W | 0.708
K58V | 80.8
T119S | 66.5
E89C | -5.37
V137Y | -14.4
I33M | 94.4
G23L | 86.8
F157Q | 7.37
M68R | 79.5
V43K | 65.8

Mixed results
Substance | target | test | test system | conditions | how to read | quantity | result
PhoQ, residues 284 288 289 292 302 303 ASSHFY | PhoP, residues 12 14 15 18 19 NQGLL (Escherichia coli, UniProt P23836) | Sort-seq, item: YFP reporter | E. coli | PhoQ-PhoP variant library, with: 10 µM Mg2+ | baseline: high Mg2+ state, higher = stronger signaling | fold induction | 6.12

Repeated from above (block 4):
Oligonucleotide | 7-mer Z-score
UACUUUG | -0.26
GAAAACG | 1.83
GUGGUAG | -0.148
CAGGCUC | -0.139
GCAUAGA | -0.00108
CUUGACG | -0.255
CCGACUG | -0.0663
